Measured values collected from several papers.
Each numbered part is a random draw from the data of one study; scales do not carry over between parts. Positions count from the first letter of the parent shown.

Set 1 — technique: universal PBM; molecule type: double-stranded DNA, one strand shown; sample: in vitro; concentration: not given; reading: higher = stronger binding
Target: Sal-like protein 4, full length isoform B (SALL4, Homo sapiens, UniProt Q9UJQ4-2, residues 1-616)
Notes: 8-mer, flanks averaged, mean of replicates
`CCATCCCC` has an E-score of -0.249.
`CAACCTAG` has an E-score of -0.0439.
`AAGTGTAG` gave an E-score of 0.109.
With `GATAGGGA` the E-score was 0.0226.
For `CGTATCAC`, the E-score was -0.0757.
For `AATGCTAA`, the E-score was 0.166.
The E-score of `TACGACTA` is reported as 0.00083.
The E-score of `AGCTTCGG` is reported as -0.226.
For `ACATCCCC`, the E-score was -0.137.
For `ATGATCAA`, the E-score was 0.266.
`AGCCCAAG` has an E-score of -0.0876.
With `CTAAGCCA` the E-score was -0.2.
With `CATTAGGA` the E-score was 0.12.
For `GCAGCTGC`, the E-score was -0.113.
`ACAATCAA` gave an E-score of 0.0814.
`GCCCCTAA` has an E-score of -0.22.
With `ACCATGGG` the E-score was -0.343.
For `CCCTCTCC`, the E-score was -0.315.
For `AACCAGTG`, the E-score was -0.14.
`CAGCACAA` gave an E-score of 0.0435.
The E-score of `CGTGTGTA` is reported as 0.165.
With `AACCAATA` the E-score was 0.232.
With `CGTATAGC` the E-score was 0.013.
`CCTAGCCC` gave an E-score of -0.271.
For `AAGAACTT`, the E-score was 0.0764.

Set 2 — target: CCNA2, cyclin fold, Cln2 fusion (human); technique: yeast growth competition, sequencing; sample: yeast; notes: strong parent motif; reference: not given; reading: higher = stronger binding
Starting sequence: PKN2 docking peptide (human); VSAVQKLDFSDTM
Under “normalised enrichment score”, `VSPVQKLDFSDTM [A3P]` is recorded as 1.44.
`VSAVQKLAFSDTM [D8A]` — result for “normalised enrichment score”: 0.581.
For `QSAVQKLDFSDTM [V1Q]`, “normalised enrichment score” read 2.
`VSAVQKLDFSDTE [M13E]`: “normalised enrichment score” 2.14.
`VSEVQKLDFSDTM [A3E]`: “normalised enrichment score” -0.532.
Under “normalised enrichment score”, `VSAVQQLDFSDTM [K6Q]` is recorded as 1.29.
`VSAVQKLDFSDVM [T12V]`: “normalised enrichment score” 1.99.
Under “normalised enrichment score”, `VQAVQKLDFSDTM [S2Q]` is recorded as 1.74.
For `VSAVQKLVFSDTM [D8V]`, “normalised enrichment score” read 1.33.
`VSAAQKLDFSDTM [V4A]` — result for “normalised enrichment score”: 1.43.
For `VTAVQKLDFSDTM [S2T]`, “normalised enrichment score” read 1.89.
Under “normalised enrichment score”, `DSAVQKLDFSDTM [V1D]` is recorded as 0.177.
`VSAVQKLDFSDTS [M13S]`: “normalised enrichment score” 2.51.
Under “normalised enrichment score”, `VSAVAKADFSDTM [Q5A L7A]` is recorded as -0.0128.
For `VSAVQKLMFSDTM [D8M]`, “normalised enrichment score” read 1.11.
For `VSAVQKLDFSKTM [D11K]`, “normalised enrichment score” read 1.5.
For `VSAYQKLDFSDTM [V4Y]`, “normalised enrichment score” read 1.53.

Set 3 — technique: RNA Bind-n-Seq; molecule type: RNA; sample: in vitro; concentration: 365 nM; reference: no-protein control; reading: higher = stronger binding
Target: RNA binding protein fox-1 homolog 2, RRM domain, GST-SBP tag (RBFOX2, Homo sapiens, UniProt O43251-10, residues 100-194)
Notes: natural RNA segment, single round, ends assumed
Target sequence (chain): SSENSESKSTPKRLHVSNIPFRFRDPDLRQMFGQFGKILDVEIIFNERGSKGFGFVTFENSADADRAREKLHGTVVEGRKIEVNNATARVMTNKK
`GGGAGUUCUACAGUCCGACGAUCGCAAGGGCACAAGUCCUGGAUGUUGUGUGUAUCGAGAGGCCAAAGGCUGGUGGCAAGUGCACGGGGCACAGCGGAGUCUGUCCUGUGACGCGCAAGUCUGAGGGUCUGGGUGGAAUUCUCGGGUGCCAA`: “RBNS enrichment (R)” 7.69.
`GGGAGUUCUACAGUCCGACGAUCAGUGUGGCCAAGCAGAAGUGGAUGUUUAUGAUGACGGUGGGGGCCCAGAGGUCAUAGGUGAUGGUCCUACUGCCCAACAGUUGCCUUUUGAAUCCUUAUGUUGAUGAUGGUGGAAUUCUCGGGUGCCAA`: “RBNS enrichment (R)” 1.25.
For `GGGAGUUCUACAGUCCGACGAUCGAGCGCCACAUGUUCCCUAUAAGGCCUGAAGCCCACAGCCCUGAAACAGUGGGGCCAGCUGCCCUGGUAUUCCAGAUACCCUGAAGCGUCUCCGUGCAGAUCUUGAAGAGUGGAAUUCUCGGGUGCCAA`, “RBNS enrichment (R)” read 0.196.
`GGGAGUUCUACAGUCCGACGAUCGUUCCCAGGAGAACUGGGAGGCACAGGAUUCCCAGCACCCUUGCUGCCUCAUUGGGGAAGUUGGCCAGCUGGACUUCAGAGAGCUAAGACACAGCAUUUUCAAAGAUAGCUGGAAUUCUCGGGUGCCAA`: “RBNS enrichment (R)” 1.02.
`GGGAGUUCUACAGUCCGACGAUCAAAUUUGUUUUGUUUUGUUUUGUUAUUUUUUAGGGAACUCUUUUGCAAAAGCAAUGGUCGGAUGUAAAUAACAUUUAAAGUAUAGUGCACAUAACUUCCCCGGACUGUUCUGGAAUUCUCGGGUGCCAA`: “RBNS enrichment (R)” 1.81.
`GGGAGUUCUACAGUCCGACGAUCAAACCCAGCCCUGGCGCUGAGCCUCUCUACCCCAGGUCAGACGGACAGAAAGACAGAUCACAGGUACAGGGAUGAGGACACCGGCUCUGACCAGGAGUUUGGGGAGCUUCUGGAAUUCUCGGGUGCCAA`: “RBNS enrichment (R)” 0.565.
`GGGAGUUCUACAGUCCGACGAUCCCUGUCCUCCAGUAUUGCACCUGUAGCCGGAGCUAGGGCCACCCCAGUGCAGGGGCAAAGCAAACCUGAUGUCAGUCGUUUUGUCUUUUCUACCCCAACCUCACCCUCUCUGGAAUUCUCGGGUGCCAA` — result for “RBNS enrichment (R)”: 0.482.
Under “RBNS enrichment (R)”, `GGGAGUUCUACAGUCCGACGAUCUAGGAUGUGGUGCAGCCCUCUCUACGCUCUUCUAUUUUUGGUAUAUUUCCUAUCUAACCUUCAAAUAGCUUCCAAUUCUUUUUUUCUUGGACUGGCUUCAUUCUGAAUUUUGGAAUUCUCGGGUGCCAA` is recorded as 0.858.
Under “RBNS enrichment (R)”, `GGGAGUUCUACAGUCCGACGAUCAAGAGAAAUUCUUGAGGACCCUGGCAAGUUGGGCCCUGACCUUUCUGUUGCUGUCUCUUGCUGGUGAAGCAAUACCAGCAGUUCCUGUAAUACCACAAUAUCGUUCCAUGUGGAAUUCUCGGGUGCCAA` is recorded as 0.291.
`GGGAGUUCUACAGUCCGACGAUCAACCAGGCUGAGCCAGGCCUCCACCCCCACCCCCGUUUGCUGGGGGCUCCUCCAGCCGCCCCCAUGGGAAGAGGCCUGGUACCGCCUCACCCACAGAGGUCUGUGCCAGGUGGAAUUCUCGGGUGCCAA`: “RBNS enrichment (R)” 2.32.
`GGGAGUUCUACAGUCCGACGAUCGUCUUCGUGCUGUGUCUCAUGGGUUUCCAUAGUGAUAAAGACAAGGAAACGCUGCAGGGGCCACAGGCACAGGCUGAUAUUUAAAGAUCUUUGCUUGCAGCCCUCCGUCCUGGAAUUCUCGGGUGCCAA`: “RBNS enrichment (R)” 0.286.
For `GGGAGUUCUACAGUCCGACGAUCAGACUUUGUAGACUACUAUAAAGACCAUCCUGAGCCAGACCUGCAGUCAACAGCAAGAGCAAGAAGCACAUAGGAACUAUACCUGCAACCAAGCUGGCAUAAGAACCAAGUGGAAUUCUCGGGUGCCAA`, “RBNS enrichment (R)” read 0.679.

Set 4 — technique: protein binding microarray; molecule type: double-stranded DNA, one strand shown; sample: in vitro; concentration: not given; reference: not given; reading: higher = stronger binding
Target: Histone acetyltransferase KAT6A, both winged helices, GST fusion (KAT6A, Homo sapiens, UniProt Q92794, residues 1-181)
Notes: 8-mer, flanks averaged, mean of 2 arrays, mostly near background
Residues (chain): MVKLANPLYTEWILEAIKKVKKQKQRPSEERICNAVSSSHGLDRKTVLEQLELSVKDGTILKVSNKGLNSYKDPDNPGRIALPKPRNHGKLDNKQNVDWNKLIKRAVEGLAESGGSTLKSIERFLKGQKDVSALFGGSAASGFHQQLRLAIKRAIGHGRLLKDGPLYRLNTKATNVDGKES
`TGCAATAA` gave an E-score of -0.0821.
With `CGATTTTC` the E-score was 0.0838.
With `TGGTTCAA` the E-score was -0.0666.
`GGCGCACC` has an E-score of 0.121.
The E-score of `GTAGCGGA` is reported as 0.132.
For `CTCGAATA`, the E-score was -0.165.
`GGGGCACC` has an E-score of 0.0332.
For `GTCTGAAC`, the E-score was 0.0258.
With `CCCGCGCC` the E-score was 0.287.
`ACCTGGAC` gave an E-score of -0.124.
For `CCCAATCA`, the E-score was -0.172.
For `AATCGGCT`, the E-score was 0.106.
`GGTGTCAC` has an E-score of -0.0418.
With `ATCTAATG` the E-score was -0.164.
`AGACAGTC` gave an E-score of 0.106.
With `GACACCTA` the E-score was -0.112.
`TGACCCCA` gave an E-score of -0.25.
`CGGAGCTC` gave an E-score of 0.078.
For `AGGATGCC`, the E-score was -0.0895.
`ACTGAGAG` gave an E-score of -0.222.
`ACACATAG` has an E-score of -0.148.
For `CATCATCC`, the E-score was -0.0266.
The E-score of `CATCAGAG` is reported as -0.0397.
With `ACCAGTCA` the E-score was -0.0567.
For `GGCTACAC`, the E-score was -0.00321.

A few entries again (set 4):
For `GGCTACAC`, the E-score was -0.00321.
`ACTGAGAG` gave an E-score of -0.222.
`TGACCCCA` gave an E-score of -0.25.
`GGGGCACC` has an E-score of 0.0332.
For `CCCAATCA`, the E-score was -0.172.
For `AGGATGCC`, the E-score was -0.0895.
With `TGGTTCAA` the E-score was -0.0666.
For `GTCTGAAC`, the E-score was 0.0258.
With `CGATTTTC` the E-score was 0.0838.
`ACACATAG` has an E-score of -0.148.
